Experimental data from different studies.
Protocols differ between the studies behind these lines.

| SMILES | assay | system | setting | endpoint | result |
| --- | --- | --- | --- | --- | --- |
| C[C@@H]1OC(=O)NN=C1c1ccc(-c2ccc(F)cc2)c(C(F)(F)F)c1 |  | patients, phase I trial | oral, dose not given, all arms, any grade TEAE | patients with abdominal distension | 20% |
| N[C@@H]1c2ccccc2OC12CCN(c1cnc3c(N4CCCc5ncccc54)n[nH]c3n1)CC2 |  | advanced solid tumour patients | oral, 20 mg once daily | patients with any TEAE | 100% |
| Nc1nc2cc(-c3ccc4ncc(C(=O)N5CCOCC5)n4c3)ccc2o1 | item: Constipation, any cause, grade ≥3 | patients with advanced solid tumours | dose not given | patients with adverse events | 0% |
| CCN(CCO)CCCC(C)Nc1ccnc2cc(Cl)ccc12 (stereo not shown) | item: Bruising grade 1 | newly diagnosed glioblastoma patients | oral, 800 mg/dose, with radiotherapy and temozolomide | patients with adverse event | 33% |
| CO[C@H]1C[C@@H]2CC[C@@H](C)[C@@](O)(O2)C(=O)C(=O)N2CCCC[C@H]2C(=O)O[C@H]([C@H](C)C[C@@H]2CC[C@@H](OC(=O)NCCOCCOCCOCCOCCOCCOCCOCCOCCC(=O)N3CCc4cc(Cn5nc(-c6ccc7oc(N)nc7c6)c6c(N)ncnc65)ccc4C3)[C@H](OC)C2)C[C@@H](O)[C@H](C)/C=C(\C)[C@@H](O)[C@@H](OC)C(=O)[C@H](C)C[C@H](C)/C=C/C=C/C=C/1C | item: gastric haemorrhage leading to dose reduction | patients with advanced solid tumours | intravenous, dose not given, any grade, all doses | patients with AE | 1.8% |
| CN1CC[C@@H](c2c(O)cc(O)c3c(=O)cc(-c4ccc(C(F)(F)F)cc4Cl)oc23)[C@@H]1CO | item: rectal abscess | B-cell malignancies | oral, 150 mg, grade 3 to 4, intermittent dosing | patients with adverse event | 0% |
| CC(=O)c1c(C)c2cnc(Nc3ccc(C4CCN(CCS(C)(=O)=O)CC4)cn3)nc2n(C2CCCC2)c1=O |  | HR+/HER2- advanced breast cancer patients | oral, 25 mg | patients with TRAE grade ≥3 | 0% |
| Cc1cc(OCCOCCC(F)(F)P(=O)(O)O)ccc1CCc1cnc2c(N)nc3cc(CCC(=O)O)ccc3c2c1 | item: vomiting | adults with advanced solid tumours | dose not given, by treatment group, all grades | patients with non-serious AE | 9.5% |
| O=C1Nc2cc3[nH]nc(-c4ccncc4)c3cc2CN1Cc1ccccc1 | CTCAE v4.03 | advanced solid tumour patients | intravenous, 0.9 mg/kg, schedules 1/2 | patients with headache | 0% |
| C=CCNc1c(O)cc2c(O)c1C[C@@H](C)C[C@H](OC)[C@H](O)[C@@H](C)/C=C(\C)[C@H](OC(N)=O)[C@@H](OC)/C=C\C=C(/C)C(=O)N2 |  | unresectable or metastatic STS, GIST, other | intravenous, 400 mg/m^2 | patients with sinus bradycardia | 19% |

For quick reference, copied from above:
| SMILES | assay | system | setting | endpoint | result |
| --- | --- | --- | --- | --- | --- |
| CN1CC[C@@H](c2c(O)cc(O)c3c(=O)cc(-c4ccc(C(F)(F)F)cc4Cl)oc23)[C@@H]1CO | item: rectal abscess | B-cell malignancies | oral, 150 mg, grade 3 to 4, intermittent dosing | patients with adverse event | 0% |
